Assay results from different studies.
Compare with care: the assays were run in different laboratories. ± marks the error that the study gave. ≈ marks a conversion by molar mass, not a printed value.
UniProt Q00535, sequence (whole entry, looked up): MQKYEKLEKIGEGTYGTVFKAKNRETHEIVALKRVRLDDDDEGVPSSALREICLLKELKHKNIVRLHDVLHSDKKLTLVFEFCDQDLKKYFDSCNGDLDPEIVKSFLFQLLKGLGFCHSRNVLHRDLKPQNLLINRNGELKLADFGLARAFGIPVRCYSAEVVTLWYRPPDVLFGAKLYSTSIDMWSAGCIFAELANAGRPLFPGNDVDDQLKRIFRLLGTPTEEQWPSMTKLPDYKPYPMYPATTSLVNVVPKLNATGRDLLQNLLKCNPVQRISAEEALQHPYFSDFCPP
UniProt Q13233, sequence (whole entry, looked up): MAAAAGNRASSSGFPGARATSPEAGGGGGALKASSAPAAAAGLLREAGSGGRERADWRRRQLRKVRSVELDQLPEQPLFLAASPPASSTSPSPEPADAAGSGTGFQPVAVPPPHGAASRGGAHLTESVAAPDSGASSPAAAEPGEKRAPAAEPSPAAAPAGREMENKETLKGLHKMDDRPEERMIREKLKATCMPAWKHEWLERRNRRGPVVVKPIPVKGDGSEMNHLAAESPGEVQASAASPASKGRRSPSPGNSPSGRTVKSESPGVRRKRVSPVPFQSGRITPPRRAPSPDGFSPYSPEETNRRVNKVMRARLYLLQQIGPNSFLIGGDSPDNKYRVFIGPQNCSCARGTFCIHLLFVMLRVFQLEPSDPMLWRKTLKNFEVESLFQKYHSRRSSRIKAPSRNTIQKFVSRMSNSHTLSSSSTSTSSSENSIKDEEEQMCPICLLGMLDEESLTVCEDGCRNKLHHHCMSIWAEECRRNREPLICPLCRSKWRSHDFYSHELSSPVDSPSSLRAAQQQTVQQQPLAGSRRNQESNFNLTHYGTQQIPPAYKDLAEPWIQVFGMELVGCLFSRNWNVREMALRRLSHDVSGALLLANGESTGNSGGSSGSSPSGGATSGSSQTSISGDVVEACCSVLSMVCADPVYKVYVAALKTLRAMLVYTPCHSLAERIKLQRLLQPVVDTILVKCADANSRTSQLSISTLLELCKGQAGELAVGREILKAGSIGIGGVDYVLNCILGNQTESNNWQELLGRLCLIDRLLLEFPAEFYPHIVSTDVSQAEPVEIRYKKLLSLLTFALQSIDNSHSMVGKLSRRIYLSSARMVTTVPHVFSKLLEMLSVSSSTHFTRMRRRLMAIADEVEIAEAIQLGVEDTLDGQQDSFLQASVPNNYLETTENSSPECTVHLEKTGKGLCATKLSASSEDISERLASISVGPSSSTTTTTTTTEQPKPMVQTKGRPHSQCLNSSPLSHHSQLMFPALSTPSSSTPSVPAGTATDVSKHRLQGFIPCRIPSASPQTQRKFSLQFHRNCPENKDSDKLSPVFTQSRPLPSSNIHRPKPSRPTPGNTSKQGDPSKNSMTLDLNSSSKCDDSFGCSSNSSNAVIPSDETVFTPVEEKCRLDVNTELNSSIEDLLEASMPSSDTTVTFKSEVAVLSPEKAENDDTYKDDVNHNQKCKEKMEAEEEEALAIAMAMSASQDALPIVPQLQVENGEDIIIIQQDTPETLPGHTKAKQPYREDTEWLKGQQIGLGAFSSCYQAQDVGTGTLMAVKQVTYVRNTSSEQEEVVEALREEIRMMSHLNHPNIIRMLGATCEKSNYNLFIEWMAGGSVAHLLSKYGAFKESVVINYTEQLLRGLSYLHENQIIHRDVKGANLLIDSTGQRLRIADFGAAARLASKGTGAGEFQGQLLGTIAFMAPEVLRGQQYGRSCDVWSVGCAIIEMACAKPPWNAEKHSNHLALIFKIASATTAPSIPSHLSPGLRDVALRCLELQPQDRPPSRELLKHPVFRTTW

`[2H]c1nc([2H])c(-c2nc([2H])n3c2C([2H])([2H])N=C(c2ccccn2)c2cc(C#C)ccc2-3)o1` has an AUC(0-t) of 414 ng·h/mL (Sprague Dawley rat, brain; oral, 2 mg/kg, 0 to 24 h, cassette dosing).
`CC[C@H](C)[C@H](NC(=O)[C@H](CC(=O)O)NC(=O)[C@@H](NC(=O)[C@@H]1CCCN1C(=O)[C@@H](N)CCCNC(=N)N)[C@@H](C)O)C(=O)N[C@@H](CCCCN)C(=O)N[C@H]1CSSC[C@@H]2NC(=O)[C@H](CCCNC(=N)N)NC(=O)CNC(=O)[C@H](CC(N)=O)NC(=O)[C@H]([C@@H](C)O)NC(=O)[C@H](CCCCN)NC(=O)CNC(=O)[C@H](Cc3ccccc3)NC(=O)[C@H](CCCNC(=N)N)NC(=O)[C@H](CO)NC(=O)[C@H](CCCCNC(=O)OCc3cc(OC)c(OC)cc3[N+](=O)[O-])NC(=O)[C@@H]3CSSC[C@@H](C(=O)N[C@@H](Cc4ccccc4)C(=O)O)NC(=O)[C@H](CC(=O)O)NC(=O)[C@H](CSSC[C@H](NC(=O)[C@H](CCC(N)=O)NC(=O)[C@H](Cc4ccc(O)cc4)NC(=O)[C@H](CO)NC(=O)[C@H](CCC(=O)O)NC(=O)[C@H](CO)NC1=O)C(=O)N[C@@H](Cc1ccccc1)C(=O)N1CCC[C@H]1C(=O)N[C@@H](C(C)C)C(=O)N3)NC(=O)[C@H](Cc1ccccc1)NC(=O)CNC(=O)[C@H](CC(N)=O)NC(=O)[C@H](C(C)C)NC2=O`: “RR interval change” 6.6 ± 1.5 ms (rat, anaesthetised; intravenous, 350 µg/kg, no illumination).
For `CN(C)[C@H]1C[C@@]23CC[C@@]4(O2)C(=CC[C@]2(C)[C@@H](c5ccc6ccncc6c5)CC[C@H]24)C=C3[C@@H](O)[C@@H]1O`, the inhibition was 4.7% (MAP3K1 (Homo sapiens, UniProt Q13233); ATP probe labelling, inhibitor, KiNativ profiling; 1 µM).
`COc1ccc(-n2cc(C(=O)N3C[C@]4(OC(=O)c5ccccc5NC(C)=O)CC[C@H](OC)[C@@]56[C@@H]4C[C@@H]([C@@H]35)[C@@]3(O)C[C@H](OC)[C@H]4C[C@@H]6[C@]3(O)[C@H]4OC)nn2)cc1` gave a C0 of 214 ng/mL (rat Sprague-Dawley, plasma; intravenous, 2 mg/kg).
`CSCC[C@H](NC(=O)[C@H](CCC(=O)O)NC(=O)[C@H](Cc1ccc(O)cc1)NC(=O)[C@@H](NC(=O)[C@H](CC(C)C)NC(=O)[C@H](CC(=O)O)NC(=O)[C@H](CC(C)C)NC(C)=O)[C@@H](C)O)C(=O)N[C@@H](CC(C)C)C(=O)N[C@@H](CO)C(=O)N[C@@H](CC(C)C)C(=O)N[C@@H](CCC(N)=O)C(=O)N[C@@H](CCC(N)=O)C(=O)N[C@H](C(=O)N[C@H](C(=O)N[C@@H](CCCCN)C(=O)N[C@@]1(C)CCCC=CCCC[C@@](C)(C(=O)N[C@@H](Cc2ccc(O)cc2)C(N)=O)NC(=O)[C@H](CCC(=O)O)NC(=O)[C@H](CC(N)=O)NC(=O)[C@H](CC(C)C)NC1=O)C(C)C)C(C)C` has a solubility of 410 ± 100 µg/mL (≈ 158 µM) (concentration not given, 24 (unit not given)).
`NC[C@]1(CC(=O)O)CC[C@H]([18F])CC1`: “initial peak SUV” 0.55 (PET; rhesus monkey, brain; intravenous, 3.8 min, baseline scan).
Under “serum LDH activity”, `O=C1NC2(CC2)COc2ncc(F)cc2[C@H]2COCCN2c2ccn3ncc1c3n2` is recorded as 762 ± 189 U/L (Sprague-Dawley rat, female, serum; oral, 10 mg/kg/day, end of treatment, 4-week subacute toxicity).
`COc1ccccc1-c1n[nH]c2nc(NC3CCN(C(=O)Cc4ccc(F)cc4F)CC3)ncc12` has a relative abundance of 1.04 (bead binding, competition bead pull-down, measured: LINJ.05.0350; Leishmania donovani extract; 10 µM; relative to: vehicle).
For `COc1ccc2c3c1O[C@H]1[C@H](O)CC[C@H]4[C@@H](C2)N(C)CC[C@@]341`, the logP was 1.36 (1 h).
`COc1cc2c(cc1NC(=O)c1cncn1C)C[C@H]1[C@H]3CCCC[C@@]23CCN1C` — result for “hanging wire hold time”: “no effect” (C57BL/6 mouse; ip, 50 µg/g, 30 min; relative to: control-injected).
Under “hepatic intrinsic clearance”, `C[C@]12CC[C@H]3[C@@H](CCC4=CC(=O)CC[C@@]43C)[C@@H]1CC[C@@H]2O` is recorded as 64.4 mL/min/kg (human liver microsomes; 1 nM).
With `CN1CC[C@]23c4c5ccc(O)c4O[C@H]2[C@H](O)CC[C@@]3(O)[C@H]1C5` the logP was 1.1 (1 h).
With `CS(C)(=O)=Nc1ccc(-c2ccc(-c3nc4cc(O[C@@H]5CO[C@H]6[C@@H]5OC[C@H]6O)[nH]c4cc3F)cc2)cc1` the inhibition was 12% (Cyclin-dependent kinase 5, with p25 (CDK5, Homo sapiens, UniProt Q00535); enzyme activity, inhibitor; 10 µM).

Some of these lines once more:
`COc1ccc(-n2cc(C(=O)N3C[C@]4(OC(=O)c5ccccc5NC(C)=O)CC[C@H](OC)[C@@]56[C@@H]4C[C@@H]([C@@H]35)[C@@]3(O)C[C@H](OC)[C@H]4C[C@@H]6[C@]3(O)[C@H]4OC)nn2)cc1` gave a C0 of 214 ng/mL (rat Sprague-Dawley, plasma; intravenous, 2 mg/kg).
